Experimental data gathered from unrelated publications.
Lines come from different studies, so protocols differ.

Compound | target or system | assay | system | setting | scale | measurement | result
CC(C)CC(=O)OC[C@H]1O[C@@](C#N)(c2ccc3c(N)ncnn23)[C@H](O)[C@@H]1O |  | plasma protein binding | rat plasma | 9 µM |  | unbound fraction | 0.0817
O=C1Nc2cc3[nH]nc(-c4ccncc4)c3cc2CN1Cc1ccccc1 |  | refers to: blurred vision | patients with advanced solid tumours | intravenous, dose not given, both schedules pooled |  | patients with TEAE | 32%
O.O.O.O.O.O.[Cl-].[Cl-].[Co+2] |  |  | Crl:CD(SD) rat female, blood | oral, 0.74 mg Co/kg/day, 90 days | reference: red blood cells | reticulocytes | 12%
C[C@@H](NC(=O)N1C(=O)[C@H](Cc2ccnc(N)c2)[C@H]1C(=O)O)C1CCCCC1 |  |  | healthy Chinese adult volunteers | continuous intravenous infusion, dose not given, 5.0 days, CTCAE 5.0, all doses |  | decreased white blood cell | 10%
CN(C)CCC(c1ccccc1)c1ccccn1 (stereo not shown) | Plasmodium falciparum |  | Dd2 |  |  | IC50 | 10 µM
COc1cccc2c1CCCC2CCCN1CCN(C2CCCCC2)CC1 (stereo not shown) |  |  | CD-1 mouse, male, lung | intraperitoneal, 10 mg/kg |  | elimination rate constant | 5.3e-05 s⁻¹
CCN(CC)CCCC(C)Nc1c2ccc(Cl)cc2nc2ccc(OC)cc12 (stereo not shown) |  |  | BALB/c mouse |  |  | MTD | 50 mg/kg
[O-][S+]1CCc2nc(N3CCC(c4ncc(Cl)cn4)CC3)nc(NC3(CO)CCC3)c21 (stereo not shown) |  | refers to: Diarrhoea | healthy male humans | 6 mg twice daily |  | adverse event incidence | 12.5%
CN1CC[C@@H](c2c(O)cc(O)c3c(=O)cc(-c4ccc(C(F)(F)F)cc4Cl)oc23)[C@@H]1CO |  | refers to: Syncope | relapsed B-cell malignancies | oral, 150 mg, grade 3-4, intermittent dosing |  | patients with adverse event | 0%
Clc1cc(Cl)c(-c2cc(Cl)c(Cl)c(Cl)c2Cl)cc1Cl |  |  | PDMS-water partitioning | PCB compilation | reference: maximum over minimum K | literature range factor | 2
CO[C@H]1C[C@@H]2CC[C@@H](C)[C@@](O)(O2)C(=O)C(=O)N2CCCC[C@H]2C(=O)O[C@H]([C@H](C)C[C@@H]2CC[C@@H](OC(=O)NCCOCCOCCOCCOCCOCCOCCOCCOCCC(=O)N3CCc4cc(Cn5nc(-c6ccc7oc(N)nc7c6)c6c(N)ncnc65)ccc4C3)[C@H](OC)C2)C[C@@H](O)[C@H](C)/C=C(\C)[C@@H](O)[C@@H](OC)C(=O)[C@H](C)C[C@H](C)/C=C/C=C/C=C/1C |  |  | patients with advanced solid tumours | intravenous, 6 mg weekly, grade 3 or higher |  | dyspnoea incidence | 0%
Cc1ccc2c(c1)C(=O)C1(O)CCN(c3ccccc3)C1=N2 (stereo not shown) |  |  | aqueous solution | 4 h, bright light exposure |  | parent remaining | 82.9%
COc1cc2c(Oc3ccc4[nH]c(C)cc4c3F)ccnc2cc1OCC1(N)CC1 |  |  | paediatric recurrent refractory sarcoma | 8 mg |  | grade 1 or 2 Hyperthyroidism | 0%
O=[N+]([O-])c1cc2c3c(ccc2c2ccccc12)[C@@H](O)[C@H](O)C=C3 |  |  | female Sprague-Dawley rats | intramammary, dose not given |  | first palpable mammary tumour | 15 weeks
Cc1cccc(Cn2nc(C3CC3)c3c(NC(=O)c4cnc5cc(OCCN6CCN(C)CC6)ccn45)cccc32)n1 |  | CTCAE v4.03, refers to: blood CPK increased | PD-1/PD-L1 inhibitor-refractory patients | oral, dose not given, added: pembrolizumab IV every 3 weeks |  | all-cause adverse events | 47.4%
Cc1scc2c1N(C(=O)CN1CCN(C)CC1)c1ccccc1NC2=O | Plasmodium falciparum |  | D10 |  |  | IC50 | 3.98 µM

Excerpt of the above:
Compound | target or system | assay | system | setting | scale | measurement | result
CCN(CC)CCCC(C)Nc1c2ccc(Cl)cc2nc2ccc(OC)cc12 (stereo not shown) |  |  | BALB/c mouse |  |  | MTD | 50 mg/kg
